{"data": "Assay results collected from several papers", "UCHL1": "Ubiquitin carboxyl-terminal hydrolase isozyme L1 (UCHL1, Homo sapiens, UniProt P09936)", "chain of UniProt P09936 (whole entry, looked up)": "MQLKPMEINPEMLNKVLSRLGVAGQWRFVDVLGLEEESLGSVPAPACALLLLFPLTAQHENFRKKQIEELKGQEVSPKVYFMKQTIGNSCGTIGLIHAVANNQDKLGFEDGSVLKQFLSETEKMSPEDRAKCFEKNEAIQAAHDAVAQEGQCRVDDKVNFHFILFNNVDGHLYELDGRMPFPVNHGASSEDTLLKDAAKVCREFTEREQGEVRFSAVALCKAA", "chain of UniProt Q07794 (whole entry, looked up)": "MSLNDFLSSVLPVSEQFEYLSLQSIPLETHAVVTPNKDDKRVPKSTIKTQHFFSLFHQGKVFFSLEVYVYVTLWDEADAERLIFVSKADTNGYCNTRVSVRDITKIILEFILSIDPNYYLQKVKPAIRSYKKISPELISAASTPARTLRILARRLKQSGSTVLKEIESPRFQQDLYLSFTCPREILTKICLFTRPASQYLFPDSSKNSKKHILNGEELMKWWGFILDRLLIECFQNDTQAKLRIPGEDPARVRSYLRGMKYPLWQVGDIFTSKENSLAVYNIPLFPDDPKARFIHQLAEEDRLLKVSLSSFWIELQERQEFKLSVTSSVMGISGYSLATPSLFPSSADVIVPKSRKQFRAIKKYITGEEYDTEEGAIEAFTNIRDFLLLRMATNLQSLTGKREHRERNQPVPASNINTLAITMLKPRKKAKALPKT"}
{"SMILES": "C=CC(=O)Nc1cc(Nc2nccc(-c3cn(C)c4ccccc34)n2)c(OC)cc1N(C)CCN(C)C", "test": "measured: Fatigue grade ≥3", "test system": "EGFR-mutant MET-altered NSCLC", "conditions": "oral, dose not given, study", "endpoint": "patients with treatment-related AEs", "value": "0%"}
{"SMILES": "C[C@@H](Nc1cc(F)cc(F)c1)c1cc(C(=O)N(C)C)cc2c(=O)cc(N3CCOCC3)oc12", "test": "measured: Fatigue", "test system": "advanced solid tumour patients", "conditions": "oral, dose not given, dose expansion", "endpoint": "patients discontinuing for AE", "value": "0%"}
{"SMILES": "FC(F)(F)c1ccc(CNc2ccc(Cc3c[nH]c4ncc(Cl)cc34)cn2)cn1", "test": "measured: gastroesophageal reflux disease", "test system": "non-TGCT solid tumour patients", "conditions": "oral, 1000 mg/day, all grades", "endpoint": "patients with treatment-related adverse event", "value": "0%"}
{"SMILES": "CCOc1c([C@H](C)n2nc(C)c3c(N)ncnc32)cc(Cl)c(F)c1[C@@H]1CNC(=O)C1", "test": "measured: QRS >100 to ≤110 ms", "test system": "previously treated B-cell malignancy", "conditions": "oral, 5 mg once daily, baseline below thresholds", "endpoint": "patients", "value": "0%"}
{"SMILES": "C=CC(=O)NC1CCN(c2ncc3ncnc(Nc4ccc(Oc5ccc6c(c5)ncn6C)c(C)c4)c3n2)CC1", "test system": "male patients", "conditions": "oral, dose not given, on-treatment adverse events", "endpoint": "patients with ALT increased", "value": "0%"}
{"SMILES": "O=C(Nc1nc2cccc(-c3ccc(CN4CCS(=O)(=O)CC4)cc3)n2n1)C1CC1", "test system": "rheumatoid arthritis patients", "conditions": "oral, 100 mg twice daily, 4 weeks, regardless of relatedness", "endpoint": "patients with skin disorders", "value": "0%"}
{"SMILES": "Cc1cc(-c2nnc(N)nc2-c2ccc(F)cc2)cc(Cl)n1", "test": "measured: hypothyroidism", "test system": "post-IO other solid tumour patients", "conditions": "oral, 100 mg once daily, treatment-related, grade 2", "endpoint": "patients with immune-mediated AE", "value": "4.8%"}
{"SMILES": "CNC(=O)c1ccc(-c2cnc3ncc(Cc4ccc5ncccc5c4)n3n2)cc1F", "test": "measured: Fatigue", "test system": "cancer patients", "conditions": "oral, dose not given, dose escalation, grade 3-4", "endpoint": "patients with adverse event", "value": "8%"}
{"SMILES": "Cc1cc(NC2CCN(C(=O)OC3CCN(C(=O)/C=C/CN(C)C)C3)CC2)n2ncc(C(C)C)c2n1 (stereo not shown)", "test": "Phase I dose escalation CTCAE v4.0, measured: dermatitis acneiform", "test system": "patients with advanced solid tumours", "conditions": "dose not given, Total dosing grade 3 or higher", "endpoint": "patients with adverse event", "value": "0%"}
{"SMILES": "Cc1cc(C)c(NC(=O)C(C#N)=Cc2cccnc2)c(C)c1", "target or system": "UCHL1", "test": "covalent, intact protein LC-MS", "conditions": "12.5 µM", "endpoint": "labelling", "value": "30.3%"}
{"SMILES": "O=S1(=O)CC(Sc2ccc(Cl)cc2)c2ccccc21 (stereo not shown)", "target or system": "Histone acetyltransferase RTT109, with Vps75 (Saccharomyces cerevisiae, UniProt Q07794)", "test": "enzyme activity, inhibitor, HTS, CPM-based, dose response", "endpoint": "IC50", "value": "> 125 µM"}
{"SMILES": "CCc1cccc(CC)c1NC(=O)C(C#N)=Cc1ccc(C#N)cc1", "target or system": "UCHL1", "test": "covalent, intact protein LC-MS", "conditions": "12.5 µM", "endpoint": "labelling", "value": "40.2%"}
{"SMILES": "CNC(=O)c1cc(Oc2ccc(NC(=O)Nc3cc(C(C)(C)C)nn3-c3ccc4ncccc4c3)c(F)c2)ccn1", "test system": "patients", "conditions": "oral, dose not given, cycles 1 and 2, Low Cmax subgroup", "endpoint": "patients with nervous system disorders", "value": "18%"}
{"note": "Some of these lines once more:"}
{"SMILES": "FC(F)(F)c1ccc(CNc2ccc(Cc3c[nH]c4ncc(Cl)cc34)cn2)cn1", "test": "measured: gastroesophageal reflux disease", "test system": "non-TGCT solid tumour patients", "conditions": "oral, 1000 mg/day, all grades", "endpoint": "patients with treatment-related adverse event", "value": "0%"}
